Results of several laboratories.

With `Cc1ccc(F)c2cc(C(=O)N[C@@H]3CCC[C@H](N4CC[C@H](N(C)S(C)(=O)=O)C4)C3)[nH]c12` the Tmax was 96 min (CD1 mouse; oral, 30 mg/kg).
The Tmax of `COc1cccc2c1CCCC2CCCN1CCN(C2CCCCC2)CC1` (centres unmarked) is reported as 30 min (CD-1 mouse, male, plasma; intraperitoneal, 0.3 mg/kg).
With `CN(C)C1(CNC(=O)c2ccc3c(c2)CCN3C(=O)c2ccccc2)CCOCC1` the Tmax was 60 min (ICR mouse, male, plasma; intraperitoneal, 30 mg/kg).
`N#C[C@@]1(n2ccc(N)nc2=O)O[C@H](CO)[C@@H](O)[C@H]1O` gave a Tmax of 30 min (CD-1 mouse, plasma; oral, 30 mg/kg).
With `CCCCCCCC(=O)N[C@@H](CCCCN)C(=O)N[C@@H](CCCCN)C(=O)N[C@@H](C)C(=O)N[C@@H](CC(C)C)C(=O)N[C@@H](CCCCN)C(=O)N[C@@H](CC(C)C)C(=O)N[C@@H](C)C(=O)N[C@@H](CCCCN)C(=O)N[C@@H](CCCCN)C(=O)N1CCC[C@H]1C(=O)N[C@@H](CC(C)C)C(=O)N[C@@H](CCCCN)C(=O)N[C@@H](CC(C)C)C(=O)N[C@@H](CC(C)C)C(=O)N[C@@H](CCCCN)C(N)=O` the Tmax was 1.8 min (mouse ICR CD1 female, whole blood; intravenous bolus, 10 mg/kg).
With `NC(=O)c1cccc(-c2cc(OC(=O)NC3CCCCC3)ccc2O)c1` the Tmax was 4.8 min (mouse, plasma; intravenous, 10 mg/kg).
For `Cc1ncsc1-c1ccc([C@H](CC(=O)NCCOCCOCCOCCOCCOCCC(=O)N2CCC(Nc3cc(C(=O)NC[C@H](O)CN4CCc5ccccc5C4)ncn3)CC2)NC(=O)[C@@H]2C[C@@H](O)CN2C(=O)[C@@H](NC(=O)C2(F)CC2)C(C)(C)C)cc1`, the Tmax was 30 min (male Swiss albino mouse, plasma; intraperitoneal, 50 mg/kg).
The Tmax of `CN[C@H]1CC[C@@H](c2ccc(Cl)c(Cl)c2)c2ccccc21` is reported as 30 min (CD-1 mouse, male, plasma; intraperitoneal, 1 mg/kg).
The Tmax of `O=c1c2cc(Cl)c(CO)cc2[nH]c(=S)n1Cc1cncnc1` is reported as 15 min (mouse, plasma; oral, 50 mg/kg).
With `C(#Cc1c[nH]c2nccc(-c3ccncc3)c12)c1cccnc1` the Tmax was 15 min (mouse C57BL/6 male, plasma; oral, 20 mg/kg).
With `COc1cc2c(cc1OC)CN(CCc1ccc(NC(=O)c3cccc4c(=O)c5cccc(OC)c5[nH]c34)cc1)CC2` the Tmax was 60 min (CD-1 mouse, male, lung; intraperitoneal, 3 mg/kg).
The Tmax of `CCC[C@@](N)(CO)CCc1ccc(OCCCCCC(C)C)cc1` is reported as 15 min (C57BL/6 mouse, plasma; intraperitoneal, 10 mg/kg).
For `CC/C(=C(\c1ccccc1)c1ccc(OCCN(C)C)cc1)c1ccccc1`, the Tmax was 360 min (CD-1 mouse, male, lung; intraperitoneal, 10 mg/kg).
For `Clc1nc[n]([Au][PH](c2ccccc2)(c2ccccc2)c2ccccc2)c1Cl`, the Tmax was 90 min (NCG mouse, plasma; intraperitoneal, 10 mg/kg).
